Experimental data gathered from unrelated publications.
Protocols differ between the studies behind these lines.
Target: Amine oxidase [flavin-containing] A (MAOA, Homo sapiens, UniProt P21397)
UniProt P21397, sequence (whole entry, looked up): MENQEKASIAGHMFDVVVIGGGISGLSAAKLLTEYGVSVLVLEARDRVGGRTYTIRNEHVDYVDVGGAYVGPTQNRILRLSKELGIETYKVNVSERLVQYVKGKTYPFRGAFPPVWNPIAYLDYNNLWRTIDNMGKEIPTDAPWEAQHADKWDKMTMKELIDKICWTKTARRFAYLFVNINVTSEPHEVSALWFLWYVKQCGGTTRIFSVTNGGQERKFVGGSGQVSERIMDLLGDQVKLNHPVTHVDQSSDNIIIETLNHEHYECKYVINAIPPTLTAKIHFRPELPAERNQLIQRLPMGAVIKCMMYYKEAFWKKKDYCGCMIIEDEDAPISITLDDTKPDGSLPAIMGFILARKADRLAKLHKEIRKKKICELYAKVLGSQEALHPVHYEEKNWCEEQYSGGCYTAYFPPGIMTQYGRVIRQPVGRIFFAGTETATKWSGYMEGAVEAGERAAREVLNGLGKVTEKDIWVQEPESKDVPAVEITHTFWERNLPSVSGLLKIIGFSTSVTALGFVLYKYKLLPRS
Mode: inhibitor

COc1ccc2c(c1)/C(=N/N=C/c1ccc(OCc3ccccc3)cc1)C(=O)N2
IC50 (enzyme activity, fluorescence): > 40 µM

CCCCC1OC(=O)c2ccccc21 (centres unmarked)
IC50 (enzyme activity, fluorescence): 19.2 µM

Cc1cc(O)c2c(c1)C(=O)c1cc(O)c(O)c(O)c1C2=O
IC50 (enzyme activity): 5.35 µM

COc1cc(O[C@@H]2O[C@H](CO)[C@@H](O)[C@H](O)[C@H]2O)c2c(O)c3c(=O)cc(C)oc3cc2c1
IC50 (enzyme activity): > 100 µM

COc1cc(OC2OC(COC3OC(CO)C(O)C(O)C3O)C(O)C(O)C2O)c2c(c1)cc(O)c1c(=O)cc(C)oc12 (centres unmarked)
IC50 (enzyme activity): 182 µM

Cc1ccc2c(c1)/C(=N/N=C/c1ccc(OCc3ccccc3)cc1)C(=O)N2
IC50 (enzyme activity, fluorescence): > 40 µM

COc1cc(/C=C/COC(=O)/C=C/c2ccc(O)c(OC)c2)ccc1O
IC50 (enzyme activity, fluorescence): 102 µM

Cc1ccc(C(=O)/C=C/c2ccc3c(c2)OCCO3)s1
IC50 (enzyme activity, fluorescence): > 40 µM

O=C1Nc2ccc(Cl)cc2/C1=N/N=C/c1cccc(OCc2ccccc2)c1
IC50 (enzyme activity, fluorescence): > 40 µM

COc1cc(C)cc(C2(O)NC(=O)c3c(OC)cc(OCc4ccccc4)cc32)c1OCc1ccccc1 (racemic)
IC50 (enzyme activity, fluorescence; pH 7.4): 22.2 µM

CCC/C=C1\OC(=O)C2=C1CC[C@@H](O)[C@H]2O
IC50 (enzyme activity, fluorescence): 108 µM

COc1cc2c(c(O)c1OC)C(=O)c1c(cc(C)c(O)c1OC)C2=O
IC50 (enzyme activity): 11.1 µM

COc1cc(OC)c2c(c1)C(O)(c1cc(C)cc(OC)c1OC)NC2=O (racemic)
IC50 (20 min, pH 7.4, 37 °C, together with: kynuramine 30 µM): > 100 µM

COc1cc(/C=C/C(=O)O)cc(OC)c1O
IC50 (enzyme activity, fluorescence): 32.9 µM

CCOC1(c2cc(C)cc(OC)c2OC)OC(=O)c2c(OC)cc(OC)cc21 (racemic)
IC50 (enzyme activity, fluorescence; pH 7.4): 86.3 µM

COc1ccc2c(c1)/C(=N/N=C/c1cccc(OCc3ccccc3)c1)C(=O)N2
IC50 (enzyme activity, fluorescence): 11.1 µM

COc1cc(OC2OC(COC3OC(CO)C(O)C(OC4OC(CO)C(O)C(O)C4O)C3O)C(O)C(O)C2O)c2c(O)c3c(=O)cc(C)oc3cc2c1 (centres unmarked)
IC50 (enzyme activity): 82.2 µM

O=C(/C=C/c1ccc2c(c1)OCCO2)c1cccs1
IC50 (enzyme activity, fluorescence): > 40 µM

COc1cc(O)c2c(c1)C(c1cc(C)cc(OC)c1OC)NC2=O (racemic)
IC50 (enzyme activity, fluorescence; pH 7.4): 17.8 µM

COc1c(OC2OC(CO)C(O)C(O)C2O)c(C)cc2c1C(=O)c1c(O)cccc1C2=O (centres unmarked)
IC50 (enzyme activity): > 400 µM

O=C1Nc2ccc(F)cc2/C1=N/N=C/c1cccc(OCc2ccccc2)c1
IC50 (enzyme activity, fluorescence): 0.731 µM

Cc1ccc(C(=O)/C=C/c2ccc3c(c2)OCCO3)o1
IC50 (enzyme activity, fluorescence): > 40 µM

CCC/C=C1\OC(=O)C2=C1CCC=C2
IC50 (enzyme activity, fluorescence): 6.06 µM

O=C1Nc2ccc(Br)cc2/C1=N/N=C/c1cccc(OCc2ccccc2)c1
IC50 (enzyme activity, fluorescence): > 40 µM

Cc1cc(O)c2c(c1)C(=O)c1cccc(OC3OC(COC4OC(CO)C(O)C(OC5OC(CO)C(O)C(O)C5O)C4O)C(O)C(O)C3O)c1C2=O (centres unmarked)
IC50 (enzyme activity): 113 µM

O=C(/C=C/c1ccc2c(c1)OCO2)c1cccs1
IC50 (enzyme activity, fluorescence): > 40 µM

C/C(=N\NC(=O)c1cccc(S(=O)(=O)N2CCOCC2)c1)c1cc(Cl)ccc1O
IC50 (enzyme activity): > 100 µM

O=C(/C=C/c1ccc2c(c1)OCCO2)c1ccco1
IC50 (enzyme activity, fluorescence): > 40 µM

COc1cc(C)cc(C2(O)NC(=O)c3c(OCc4ccccc4)cc(OCc4ccccc4)cc32)c1OC (racemic)
IC50 (20 min, pH 7.4, 37 °C, together with: kynuramine 30 µM): > 100 µM

For quick reference, copied from above:
COc1cc(/C=C/C(=O)O)cc(OC)c1O
IC50 (enzyme activity, fluorescence): 32.9 µM

CCOC1(c2cc(C)cc(OC)c2OC)OC(=O)c2c(OC)cc(OC)cc21 (racemic)
IC50 (enzyme activity, fluorescence; pH 7.4): 86.3 µM

COc1ccc2c(c1)/C(=N/N=C/c1cccc(OCc3ccccc3)c1)C(=O)N2
IC50 (enzyme activity, fluorescence): 11.1 µM
